Published values gathered from unrelated publications.
Each line is one published result; not all experiments were run side by side. “And” joins repeats or separate records; there may be more than shown. Numbers after ± are the reported error.

SMILES	assay	system	conditions	how to read	endpoint	value
Cc1cc(NC2CCN(C(=O)OC3CCN(C(=O)/C=C/CN(C)C)C3)CC2)n2ncc(C(C)C)c2n1 (stereo not drawn)	Phase I dose escalation CTCAE v4.0, measured: Constipation	patients with advanced solid tumours	dose not given, TIW dosing any grade	–	patients with adverse event	36%
CCn1cc(C(=O)N2CCOCC2)c(=O)c2cc(NC3Cc4ccccc4C3)cnc21	–	human, fasted, plasma	oral, 900 mg single dose, tablet, arithmetic mean	–	half-life	4.38 h
Cc1ccc(CNC(=O)c2cc(/C=C/C(=O)O)cc(-c3ccc4ncnn4c3)c2)cc1	–	mouse, plasma	37 °C	–	time stable	> 240 min
N[C@H]1C(O)O[C@H](CO)[C@@H](O)[C@@H]1O (stereo partly drawn)	–	aqueous solution	10 mM, together with: glucose	–	osmolality	8 mOsmol/kg
N#Cc1ccc2c(c1)[C@H]1CCCN(C(=O)c3ccc4[nH]cnc4c3)[C@H]1C2	–	human	240 mg, day 15	–	maximum ACTH level	18.7 pmol/L
O=C(O)CCCOc1ccc([18F])cc1-c1cc(-c2ccccc2C(F)(F)F)n(-c2ccccc2)n1	gamma counting	male ddY mice, liver	intravenous, 2.1 MBq, 15 min	–	radioactivity uptake	1.2 ± 0.13 SUV
CNC(=O)c1ccc(-c2cnc3ncc(Cc4ccc5ncccc5c4)n3n2)cc1F	–	Japanese patients	oral, 400 mg, grade 3/4	–	ALT increased patients	3%
CCN1/C(=C/C(C)=O)Sc2ccc(F)cc21	–	cynomolgus monkey	oral, 30 mg/kg, 24 h post-dose	baseline: pre-dose	QTc interval change	99.8 ± 3.2%
Cn1c(Cc2ccccc2)nnc1Sc1ccc([N+](=O)[O-])cc1C(=O)N1CCOCC1	–	octanol/buffer	pH 11, known kinase inactives set	–	logP	1.48
C=CC(=O)NC1CCN(c2ncc3ncnc(Nc4ccc(Oc5ccc6c(c5)ncn6C)c(C)c4)c3n2)CC1	–	healthy male volunteers, plasma	oral tablet, 60 mg, dose-normalised AUC(0-tz), adjusted geometric mean	baseline: oral over intravenous microtracer	absolute bioavailability (AUC ratio)	77%
FC(F)(F)c1ccc(CNc2ccc(Cc3c[nH]c4ncc(Cl)cc34)cn2)cn1	measured: periorbital oedema	human, advanced solid tumours, non-TGCT cohort	oral, 1000 mg/day, grade 3 or higher	–	treatment-related adverse events	0%
COc1ccc2c(c1)CN(C(=O)CCN1CCC(Cc3ccccc3)CC1)CC[S@@+]2[O-]	–	dog plasma	100 ng/mL	–	fu	0.245
Cc1cc(-c2nnc(N)nc2-c2ccc(F)cc2)cc(Cl)n1	measured: hypothyroidism	IO-naive other solid tumour patients	oral, 100 mg once daily, treatment-related, grade 2	–	patients with immune-mediated AE	5.3%
COc1ccc([N+](=O)[O-])cc1NC(=O)C(C)Oc1ccccc1C (stereo not drawn)	–	octanol/buffer	pH 11, known kinase inactives set	–	logP	4.48
Cc1c(C(=O)O)ccc2c3n(nc12)[C@@H]1[C@H](C3)N(CC2CC2)[C@@]2(C(=O)Nc3cc(Cl)ccc32)[C@H]1c1cccc(Cl)c1F	phase Ia trial, measured: Headache	cancer patients	oral, dose not given	–	adverse event incidence	20%
CC(C)(C(=O)N1CCOc2c(C#N)cncc2C1)C(F)F	measured: Palpitations	human	oral, 15 mg twice daily, 14 days, multiple ascending dose	–	subjects with adverse event	0%
O=S(=O)(NCc1ccccn1)c1cc(Cl)c(Cl)cc1Cl	–	octanol/buffer	pH 11, known kinase inactives set	–	logP	2.01
COc1ccc2nc(-c3ccccn3)c(N(C)c3ccc(F)cc3)n2c1	–	male CD-1 mouse, fasted, plasma	oral, 50 mg/kg, together with: 1-aminobenzotriazole 50 mg/kg	–	MRT(0-last)	1.09 h and 1.28 h
C[C@@H]1[C@H](c2c(F)ccc(F)c2F)C[C@H](NC(=O)c2cnc3c(c2)C[C@@]2(C3)C(=O)Nc3ncccc32)C(=O)N1CC(F)(F)F	–	human patients, plasma	oral, population PK model, together with: famotidine	baseline: no famotidine	decrease in relative bioavailability	15%

SMILES	assay	system	conditions	how to read	endpoint	value
O=C(O)CNC(=O)c1ncccc1O	shake-flask, potentiometric	1-octanol/water	–	–	logP	-0.1
Nc1nc(NC2CC2)c2ncn([C@H]3C=C[C@@H](CO)C3)c2n1	–	Tat+ transgenic mouse, hippocampus	subcutaneous osmotic pump, dose not given, 5 d	–	drug concentration	163000 ± 25700 ng/g
CN1CCN(C(=O)CN(C)S(=O)(=O)c2ccc3ccccc3c2)CC1	–	octanol/buffer	pH 11	–	logP	1.95
Cc1nn(C2CC2)c(=O)c2nn(C)c(Cc3ccc(C(F)(F)F)c(C#N)c3)c12	–	rat Sprague-Dawley male, blood	intravenous, 1 mg/kg	–	CLint,u	13.8 mL/min/kg
CCO[C@H]1CCN(Cc2c(OC)cc(C)c3[nH]ccc23)[C@H](c2ccc(C(=O)O)cc2)C1	–	PNH patients, active haemolysis	oral, 200 mg, 8 weeks, treatment	–	incidence of flatulence	0%
CC(C)n1c(Nc2cccnc2)nc2cnc(Nc3ccc(N4CCN(C)CC4)cc3)nc21	–	human, male, plasma	oral, dose not given, together with: itraconazole	baseline: without itraconazole	increase in AUC	~28%
O=C(O)C[C@H](O)C[C@H](O)/C=C/c1c(C2CC2)nc2ccccc2c1-c1ccc(F)cc1	–	FVB wild-type mouse, plasma	oral, 5 mg/kg, geometric mean, together with: silymarin 500 mg/kg oral	–	AUC(0-12h)	0.0689 µM·h
CCc1cc2ncc(CN3CCN(c4ccc(C(=O)NC)nc4)CC3)cc2[nH]c1=O	–	male rat, blood	oral, 50 mg/kg/day, 4 weeks	baseline: vehicle control	Monocytes count ratio	0.33
O=S(=O)(O)Oc1cc([C@H]2Oc3cc(O)cc(O)c3C[C@H]2O)ccc1O	–	human, cerebrospinal fluid	concentration not given, mean	–	CSF concentration	12.1 nM
O=C(CSc1nnc(-c2ccccc2O)n1-c1ccccc1)Nc1cccc(C(=O)O)c1	–	octanol/buffer	pH 11, known kinase inactives set	–	logP	-1.65
O=S(=O)(c1ccc(-c2ccc3nccc(Nc4ccncn4)c3c2)cc1)N1CCOCC1	–	female BALB/c mice, brain homogenate	intraperitoneal, 10 mg/kg, 1 h, mean	–	brain concentration	22.4 ng/mL
O=C(O)CCC(=O)O.[2H]C([2H])([2H])Oc1cc(C)c2[nH]ccc2c1CN1CC[C@@H](C2CC2)C[C@H]1c1ccc(C(=O)O)cc1	–	healthy Chinese subjects	dose not given, multiple ascending dose, pooled	baseline: subjects	subjects with TEAEs	70%
Cn1cc([C@H]2C[C@H]3CSC(N)=N[C@@]3(c3ccc(F)cc3F)CO2)cn1	–	male 129/SVE mouse, CSF	subcutaneous, 3 mg/kg, 1 h	–	CSF concentration	27 nM
Cc1c(Cl)c(C)[n+]([O-])c(Cl)c1-c1noc(-c2cc(O)c(O)c([N+](=O)[O-])c2)n1	–	healthy Chinese subjects	oral, 50 mg, 10 days	–	adverse drug reaction incidence	0%
O=C(Nc1nc2cccc(-c3ccc(CN4CCS(=O)(=O)CC4)cc3)n2n1)C1CC1	measured: hypertension	human rheumatoid arthritis patients	oral, 150 mg once daily, 4 weeks, regardless of relatedness	–	treatment-emergent adverse events	0%
CCOc1c([C@H](C)n2nc(C)c3c(N)ncnc32)cc(Cl)c(F)c1[C@@H]1CNC(=O)C1	measured: QTcF ≤450 ms	previously treated B-cell malignancy	oral, 20 mg once daily, overall population	–	ECG observations	95.8%
Cc1cc(-c2nccc3c2ccn3CC(=O)Nc2ccc(-c3cnccn3)cn2)ccn1	–	human	20 mg once daily, multiple ascending dose	–	post-procedural inflammation	11.1%
Cc1ccc(C(=O)N(CCCN)C(c2nc3snc(C)c3c(=O)n2Cc2ccccc2)C(C)C)cc1 (stereo not drawn)	pneumonia grade ≥3 (CTCAE)	human patients	intravenous, 7 mg/day	–	patients with adverse event	25%
Cc1ccc(C)c(OCCCC(C)(C)C(=O)O)c1	–	human, plasma	oral, dose not given, day 17 predose, geometric mean	–	trough plasma concentration	1550 ng/mL

SMILES	assay	system	conditions	how to read	endpoint	value
Cc1nc2c([nH]1)c(=O)n(C)c(=O)n2Cc1ccco1	–	male rat liver microsomes	40 µM, 3 h, together with: DHA-Na 5 mg/L	–	inhibition	17.6 ± 2.68%
CCN1CCN(Cc2ccc(Nc3ncc(F)c(-c4cc(F)c5nc6n(c5c4)[C@H](C)CCC6)n3)nc2)CC1	–	human, plasma	400 mg single dose, mean	–	Vd/F	1830 L
COc1ccc([C@@H](O)c2cc(-c3ncnc4cc(N5CCOCC5)ccc34)c(F)cc2Cl)nn1	–	locally advanced rectal cancer patients	150 mg, together with: capecitabine and radiotherapy	–	decreased appetite TEAE incidence	50%
Cc1cccc(Cn2cc(CO)c3cnccc32)c1	–	F344 rat, male, serum	oral, 100 mg/kg/day, 2 days	–	AST	117 U/L and 112 U/L and 110 U/L
Oc1cccc(O)c1O	–	broiler chickens, serum	oral, in feed, 2000 mg/kg feed, chestnut tannin diet	–	detection in serum	not detected
[O]=[Co].[O]=[Co][O][Co]=[O]	–	Crl:CD(SD) rat female, blood	oral, 73.4 mg Co/kg/day, 90 days	–	haematocrit	44.8%
CCCCC1=NC2(CCCC2)C(=O)N1Cc1ccc(-c2ccccc2S(=O)(=O)Nc2noc(C)c2C)c(COCC)c1	–	healthy adult volunteers, plasma	oral, 50 mg, single dose, fed, crushed tablet	–	Cmax	1350 ng/mL
Cc1ccc([C@@H]2O[C@H](CO)[C@@H](O)[C@H](O)[C@H]2O)cc1Cc1ccc(-c2ccc(F)cc2)s1	–	Japanese type 2 diabetes patients	25 mg, day 6, 24 h urine collection	baseline: baseline	urinary magnesium excretion change	-5.67 mg
CC1(C)C(/C=C/C2=C(Cl)C(=C/C=C3\N(CCCCCC(=O)O)c4ccccc4C3(C)C)/CCC2)=[N+](CCCCCC(=O)O)c2ccccc21	–	methanol	–	–	emission maximum	807 nm
CCOc1c(O)cc(Br)c2c1CN1CCc3cc(OCC(F)F)c(O)cc3[C@@H]1C2	–	mouse liver S9	2 µM, pH 7.4	–	scaled intrinsic clearance	1040 mL/min/kg
Cc1nc(C)c(-c2ccnc(Nc3cccc([N+](=O)[O-])c3)n2)s1	–	octanol/buffer, 40 mM buffer	pH 11	–	logP	4.06
Cl.[2H]C([2H])([2H])CC(=O)c1cnc(NC(=O)C2CC2)cc1Nc1cccc(-c2ncn(C([2H])([2H])[2H])n2)c1OC	geometric mean	human	oral, 20 mg once daily, day 1, fasted, liquid, multiple dose	–	half-life	6.27 h
CC(C)C[C@H](NC(=O)[C@H](CCC1CCCCC1)NC(=O)[C@@H]1C[C@H](C)CN1C(=O)c1ccc(F)cc1)C(=O)NC(C)(C)C(=O)N[C@@H](CC(C)C)C(=O)N[C@@H](CC(C)C)C(=O)NC(C)(C)C(=O)NC(C)(C)C(=O)NCCC(=O)N[C@@H](C)CN(C)C	circular dichroism	phosphate buffer	pH 7.4, 20 °C	–	alpha-helix content	88.9%
CCc1cc(C(=O)NC)c2nccc(N3CCc4c(cc(Cn5ccnc5)cc4-c4cn(C)nc4C(F)(F)F)C3=O)c2c1	–	Sprague Dawley rats	oral, 100 mg/kg once daily, 7 days	–	haematocrit	44.4 ± 0.68%
NC1(C(=O)N[C@@H](CCO)c2ccc(Cl)cc2)CCN(c2nc[nH]c3nccc2-3)CC1	–	metastatic CRPC patients	480 mg b.i.d., any grade, treatment-related, together with: enzalutamide 160 mg daily	–	incidence of Vomiting	20%
C[C@H]1Oc2cc(cnc2N)-c2c(nn(C)c2C#N)CN(C)C(=O)c2ccc(F)cc21	–	human patients, plasma	oral, dose not given, cycle 2 day 1, mean, together with: avelumab	–	dose-normalised AUClast	55 ng·h/mL/mg
Cn1cnc2c1c(=O)[nH]c(=O)n2C	–	human, both sexes, cerebrospinal fluid	dose not given, mean	–	CSF concentration	348 nM
O=C(Nc1cnccc1Cl)N1CCN(Cc2ccc3c(c2)OC(F)(F)O3)CC1	multiple ascending dose	young men	25 mg, treatment-emergent adverse events	–	injection site pain incidence	33.3%
CCNCCNC(=O)c1c(C)[nH]c(/C=C2\C(=O)Nc3ccc(F)cc32)c1C	–	human, serum	37.5 mg maintenance, median	–	serum concentration/dose ratio	0.39

A few entries again:
SMILES	assay	system	conditions	how to read	endpoint	value
Cc1cccc(Cn2cc(CO)c3cnccc32)c1	–	F344 rat, male, serum	oral, 100 mg/kg/day, 2 days	–	AST	117 U/L and 112 U/L and 110 U/L
Oc1cccc(O)c1O	–	broiler chickens, serum	oral, in feed, 2000 mg/kg feed, chestnut tannin diet	–	detection in serum	not detected
[O]=[Co].[O]=[Co][O][Co]=[O]	–	Crl:CD(SD) rat female, blood	oral, 73.4 mg Co/kg/day, 90 days	–	haematocrit	44.8%
CCCCC1=NC2(CCCC2)C(=O)N1Cc1ccc(-c2ccccc2S(=O)(=O)Nc2noc(C)c2C)c(COCC)c1	–	healthy adult volunteers, plasma	oral, 50 mg, single dose, fed, crushed tablet	–	Cmax	1350 ng/mL
